# Results gathered from unrelated publications.
# Compare with care: the assays were run in different laboratories. Several values in a cell are separate wells, animals, samples, runs or records. ± marks the error that the study gave.
SMILES,assay,test system,setting,how to read,endpoint,result
CC(C)[C@H](NC(=O)[C@@H]1CCCN1C(=O)[C@H](CCCNC(=N)N)NC(=O)[C@H](CS)NC(=O)[C@H](Cc1c[nH]c2ccccc12)NC(=O)[C@H](CCCNC(=N)N)NC(=O)[C@@H](Cc1ccccc1)NC(=O)[C@H](Cc1c[nH]cn1)NC(=O)[C@H](CCC(=O)O)NC(=O)[C@H](CS)NC(=O)[C@H](CS)NC(=O)[C@@H]1CC(=O)N[C@@H](CCCNC(=N)N)C(=O)NCC(=O)N[C@@H](CC(=O)O)C(=O)N[C@H](Cc2ccc(O)cc2)C(=O)N1)C(N)=O [technetium-99m labelled],,"C57 mouse, female, B16/F1 melanoma, brain","intravenous, 0.037 MBq, 0.5 h",,tissue uptake,0.21 ± 0.1 %ID/g
CCCC(CCC)NC(=O)c1ccc(O)c(O)c1,,"female Sprague-Dawley rat, plasma","oral, 50 mg/kg of parent drug",,Tmax,0.31 h
Cc1cc2c(cc1C1(c3ncc(C(=O)O)cn3)CC1)C(C)(C)CCC2(C)C,,"Sprague-Dawley rat, male","oral, 100 mg/kg, 3 h, sesame oil vehicle",,blood cholesterol,80 ± 10.8 mg/dL
CCN(CC)CC#CCNc1ccnc2cc(Cl)ccc12,,human hepatocytes,"10 µM, 30 min",,parent compound remaining,55%
CC12CC(c3ccc(S(C)(=O)=O)cc3)C3=C4CCC(=O)C=C4CCC3C1CCC2(O)C(F)(F)C(F)(F)F (stereo not drawn),,"human, plasma","intravenous infusion, 15.7 µg [14C]-labelled, 30 min infusion, microdose 1.5 to 2 h after oral 4 mg",,"AUC(0-24h), geometric mean",0.98 ng·h/mL
CC(C)(C)NCC(SS(=O)(=O)O)c1ccccc1 (stereo not drawn),,"Swiss Webster CFW mouse, female, plasma","intravenous, 15 mg/kg, from 0 h to infinity",,AUC(0-inf),2560 ng·h/mL
CC[C@H](C)[C@H](NC(=O)[C@H](Cc1ccccc1)NC(=O)[C@H](CCCCN)NC(=O)[C@H](CCCNC(=N)N)NC(=O)[C@H](Cc1ccccc1)NC(=O)[C@H](Cc1ccccc1)NC(=O)[C@H](CCCCN)NC(=O)[C@H](CO)NC(=O)[C@H](CC(C)C)NC(=O)[C@H](CCCNC(=N)N)NC(=O)[C@H](CCSC)NC(=O)[C@H](C)N)C(=O)N[C@@H](CC(C)C)C(=O)N[C@@H](CCCN)C(=O)N[C@@H](CCCNC(=N)N)C(=O)N[C@@H](CCCCN)C(=O)N[C@@H](CCCCN)C(=O)O,circular dichroism,20% TFE in PBS,"200 µM, pH 7.4, 25 °C",,helicity,14.9%
CC1=C(/C=C/C(=O)N2CCN(C(N)=O)CC2)C(C)(C)CCC1,,"male mice, retina","oral, 20 mg/kg",,Cmax,4.79 nmol/g
O=C(CCc1ccc(CNC(C(=O)OC2CCCC2)C2CCCCC2)cn1)NO (stereo not drawn),,human,"oral, 50 mg, single dose, geometric mean",,Vz/F,140 L
CC[C@@H](C)[C@@H](NC(=O)[C@@H](C)NC(=O)[C@@H](CCCCN)NC(=O)[C@@H](CC(C)C)NC(=O)[C@@H](C)NC(=O)[C@H](NC(=O)[C@@H](CCCCN)NC(=O)[C@@H](CC(C)C)NC(=O)[C@H](NC(=O)[C@@H](CCCCN)NC(=O)[C@@H](CCCCN)NC(=O)[C@@H](CCCCN)NC(=O)[C@@H](C)NC(=O)[C@@H](CCCCN)NC(=O)[C@@H](CO)NC(=O)[C@@H](Cc1ccccc1)NC(=O)[C@H](NC(=O)[C@@H](CCCCN)NC(=O)[C@@H](CC(C)C)NC(=O)[C@@H](Cc1ccccc1)NC(=O)[C@@H](CO)NC(=O)[C@@H](CCCCN)NC(=O)[C@@H](Cc1c[nH]c2ccccc12)NC(=O)[C@@H](CCCCN)NC(C)=O)[C@H](C)O)C(C)C)[C@H](C)O)C(=O)N[C@H](CO)C(=O)N[C@H](CCCCN)C(N)=O,RP-HPLC temperature profiling,,"pH 2, 5-80 °C, unit not given",baseline: control peptide,self-association parameter,3.31
CC(C)(O)c1ccc(N2Cc3c(ccnc3-c3ccc(F)cc3OCC(F)(F)F)C2=O)cc1,,"male C57BL/6 mouse, plasma","oral, 10 mg/kg, single dose",,MRT,8.1 h
CC(C)(Sc1cc[n+]([O-])cc1-c1ccc(C#N)c2ccccc12)C(=O)OC1OC(C(=O)O)C(O)C(O)C1O (stereo not drawn),,"adult men, plasma","oral, 15 mg verinurad, mild renal impairment",baseline: impaired over normal renal function,Cmax ratio,158%
CN1CCC(N[C@@H]2CCc3[nH]c4c(C(N)=O)ccc(-c5ccccc5Cl)c4c3C2)CC1,,"mouse, plasma","oral, 10 mg/kg",,MRT(0-inf),8.89 h
N=C(N)NCCC[C@@H]1NC(=O)[C@H](Cc2c[nH]c3ccccc23)NC(=O)[C@@H](CC2CCCCC2)NC(=O)[C@@H]2CCCN2C(=O)[C@@H](NC(=O)CCc2ccccc2)CCCNC1=O,,"C57BL/6J mouse, plasma","oral, 1 mg/kg single dose",baseline: intravenous AUC,oral bioavailability,23% and 22.6% and ~20%
CN(C)CCCn1c2ccc([N+](=O)[O-])cc2c(=O)n1Cc1ccccc1,resazurin,"peritoneal macrophages, BALB/c mice","48 h, 10% FBS",,CC50,5 ± 3 µM
CC[C@H](C)[C@H](NC(=O)[C@H](CCCCN)NC(=O)[C@H](CS)NC(=O)[C@H](CC(N)=O)NC(=O)[C@H](C)NC(=O)[C@H](CCCNC(=N)N)NC(=O)[C@H](CCCNC(=N)N)NC(=O)[C@H](CC(N)=O)NC(=O)[C@H](CCCNC(=N)N)NC(=O)[C@@H](NC(=O)[C@H](CCCNC(=N)N)NC(=O)[C@H](CS)NC(=O)[C@H](CO)NC(=O)[C@@H](NC(=O)[C@@H](NC(=O)[C@H](CS)NC(=O)[C@H](CCCCN)NC(=O)[C@@H](N)CCCNC(=N)N)C(C)C)[C@@H](C)CC)[C@@H](C)CC)C(=O)N[C@@H](CC(C)C)C(=O)N[C@@H](CS)C(=O)N[C@@H](CC(N)=O)C(=O)O,LC/MS,PBS,0.1 mg/mL,baseline: LC peak area,two-disulfide form,51%
CCCC[C@@H]1NC(=O)[C@@H](NC(=O)[C@H](CCC(=O)O)NC(=O)CNC(=O)CN2CCN(CC(=O)O)CCN(CC(=O)O)CCN(CC(=O)O)CC2)CCCCNC(=O)C[C@@H](C(N)=O)NC(=O)[C@H](C(C)C)NC(=O)[C@@H]2CCCN2C(=O)[C@H](CCCNC(=N)N)NC(=O)CNC(=O)[C@H](Cc2c[nH]c3ccccc23)NC(=O)[C@H](CCCNC(=N)N)NC(=O)[C@@H](Cc2ccccc2)NC(=O)[C@H](Cc2c[nH]cn2)NC(=O)[C@H](CCC(=O)O)NC1=O [gallium-67 labelled],,"C57 mice, B16/F1 flank melanoma, skin","intravenous, 0.037 MBq/mouse, 4 h",,tissue uptake,0.2 ± 0.15 %ID/g
Cn1c(=O)oc2ccc(-c3ccc(CC(C#N)NC(=O)C4CNCCCO4)c(F)c3)cc21 (stereo not drawn),,human,"oral, 40 mg once daily, treatment-related AE, multiple ascending dose",,lymphadenopathy incidence,0%
NC(=O)/C=C/c1cccc(S(=O)(=O)Nc2ccccc2)c1,,"patients with normal liver function, plasma","intravenous, 400 mg/m^2 belinostat, single 30 min infusion, cycle 1 day -7, mean",,AUC(0-inf),10800 ng·h/mL
COc1ccc(/C=C/c2ccc(-c3ccc(C)cn3)nc2)cc1,TCSPC,MeOH,,,fluorescence lifetime,0.95 ns
CC(=O)N[C@@H](CC(N)=O)C(=O)NCC(=O)N[C@@H](C)C(=O)N[C@@H](C)C(N)=O,1H NMR,sodium phosphate buffer 50 mM,"pH 7.4, 46 °C",,half-life of Asn form,13.9 h
CC(=O)N[C@H](CCNC(=O)c1cc(NC(=O)c2cc(NC(=O)c3cc(NC(=O)c4nccn4C)cn3C)cn2C)cn1C)C(=O)Nc1cn(C)c(C(=O)Nc2cc(C(=O)Nc3cc(C(=O)Nc4cc(C(=O)NCCCN(C)CCCN[14C](=O)c5cccc([14C](=O)O)c5)n(C)c4)n(C)c3)n(C)c2)n1,,"NSG male mice, A549 and LNCaP double xenograft, A549 tumour","intraperitoneal, 20 nmol per animal, 24 h",,tissue concentration,0.23 mg/kg
CCCC1OC2CC3C4CCC5=CC(=O)C=CC5(C)C4C(O)CC3(C)C2(C(=O)COC(=O)CN)O1 (stereo not drawn),,rat lung homogenate,"200 µg/mL, 6 h",,hydrolysed conjugate,84%
CN1CCC[C@]1(C)/C=C/S(=O)(=O)NC(=O)Nc1c2c(cc3c1CCC3)CCC2,,"human, urine","oral, 50 mg single dose",,amount recovered in urine,34.6 mg
CCCCCCCCN(CCC(=O)Nc1ccccc1)C(=O)c1ccccn1,chemical stability,"mouse, culture medium",500 µM,,half-life,> 24 h
COc1cc(NC(C)=O)c2c(c1O)-c1c(OC)c(OC)cc3c1C(C2)N(C)CC3 (stereo not drawn),,rat brain homogenate,"50 µg/mL, time not given, three freeze-thaw cycles",,remaining compound,101 ± 2.6%
CCCCCCCCCC(O)CC(=O)CCc1ccc(O)c(OC)c1 (stereo not drawn),,"healthy Indonesian humans, plasma","oral, 2 g red ginger suspension, single dose",,elimination half-life,5.6 h

# A few entries again:
SMILES,assay,test system,setting,how to read,endpoint,result
O=C(CCc1ccc(CNC(C(=O)OC2CCCC2)C2CCCCC2)cn1)NO (stereo not drawn),,human,"oral, 50 mg, single dose, geometric mean",,Vz/F,140 L
CC(C)(O)c1ccc(N2Cc3c(ccnc3-c3ccc(F)cc3OCC(F)(F)F)C2=O)cc1,,"male C57BL/6 mouse, plasma","oral, 10 mg/kg, single dose",,MRT,8.1 h
